Assay results collected from several papers.
Lines come from different studies, so protocols differ. ± marks the error that the study gave. In brackets after ≈: the same amount, converted by molar mass.
Organism: Acinetobacter baumannii

O.O.O.O.O=C([O-])Cc1ccccc1Nc1c(Cl)cccc1Cl.O=C([O-])Cc1ccccc1Nc1c(Cl)cccc1Cl.[Na+].[Na+].c1cnc2c(c1)ccc1cccnc12.c1cnc2c(c1)ccc1cccnc12 — biofilm inhibition (crystal violet; ATCC 19606; 250 µM): 69.782 ± 0.065%
CCCCCCCCCCCCCC(=O)N[C@@H](Cc1ccccc1)C(=O)N[C@@H](CCCCN)C(=O)N[C@@H](CCCCN)C(=O)N[C@@H](CCCCN)C(=O)N[C@@H](CCCCN)C(N)=O — MBC (clinical isolate): 128 µg/mL (≈ 144 µM)
CC(C)C[C@H](NC(=O)[C@H](Cc1ccc(O)cc1)NC(=O)[C@@H]1CCCN1C(=O)[C@H](CCCNC(=N)N)NC(=O)[C@@H]1CCCN1C(=O)[C@H](CCCCN)NC(=O)[C@H](CC(=O)O)NC(=O)[C@@H]1CCCN1C(=O)[C@H](CCCNC(=N)N)NC(=O)C1(N)CCCCC1)C(=O)N1CCC[C@H]1C(=O)N[C@@H](CCCNC(=N)N)C(=O)N1CCC[C@H]1C(=O)N[C@@H](CCCNC(=N)N)C(=O)N1CCC[C@H]1C(=O)N1CCC[C@H]1C(=O)N[C@@H](CCCNC(=N)N)C(=O)N1CCC[C@H]1C(=O)N[C@H](C(=O)N[C@@H](CCCNC(=N)N)C(=O)N[C@@H](CSc1c(F)c(F)c(-c2c(F)c(F)c(SC[C@H](NC(=O)[C@H](CCCNC(=N)N)NC(=O)[C@@H](NC(=O)[C@@H]3CCCN3C(=O)[C@H](CCCNC(=N)N)NC(=O)[C@@H]3CCCN3C(=O)[C@@H]3CCCN3C(=O)[C@H](CCCNC(=N)N)NC(=O)[C@@H]3CCCN3C(=O)[C@H](CCCNC(=N)N)NC(=O)[C@@H]3CCCN3C(=O)[C@H](CC(C)C)NC(=O)[C@H](Cc3ccc(O)cc3)NC(=O)[C@@H]3CCCN3C(=O)[C@H](CCCNC(=N)N)NC(=O)[C@@H]3CCCN3C(=O)[C@H](CCCCN)NC(=O)[C@H](CC(=O)O)NC(=O)[C@@H]3CCCN3C(=O)[C@H](CCCNC(=N)N)NC(=O)C3(N)CCCCC3)C(C)C)C(=O)NN)c(F)c2F)c(F)c1F)C(=O)NN)C(C)C — PI-positive bacteria (inner membrane permeabilization, PI/SYTO flow cytometry; 1 × MBC): 50 to 60%
CCCCCCCCCCCCCCCC(=O)N[C@@H](CCCCN)C(=O)N[C@@H](CCCCN)C(=O)N(CCCCN)CC(=O)N[C@@H](CCCCN)C(=O)N[C@@H](CCCCN)C(N)=O — MBC (clinical isolate): 128 µg/mL (≈ 143 µM)
NCCc1cccc(-c2nc(=O)c3ccccc3s2)n1 — EC50 (microbial growth; NCTC13424): 27 µM
CCCCCCCCCCCCCCCC(=O)NCCCC[C@H](N)C(=O)N[C@@H](CCCCN)C(=O)N[C@@H](CCCCN)C(=O)N[C@@H](CCCCN)C(=O)N[C@@H](CCCCN)C(=O)N[C@@H](CCCCN)C(N)=O — MBC (clinical isolate): 128 µg/mL (≈ 125 µM)
CCCCCCCC(=O)N[C@@H](CCN)C(=O)N[C@H](C(=O)N[C@@H](CCN)C(=O)N[C@H]1CCNC(=O)[C@H]([C@@H](C)O)NC(=O)[C@H](CCN)NC(=O)[C@H](CCN)NC(=O)[C@H](CC(C)C)NC(=O)[C@@H](Cc2ccccc2)NC(=O)[C@H](CCN)NC1=O)[C@@H](C)O — DiBAC4 fluorescence (outer membrane integrity, flow cytometry; 5075; concentration not given, 1 h, polymyxin treatment; baseline: vehicle): ~36.8 fold
CC(C)C[C@H](NC(=O)[C@H](Cc1ccc(O)cc1)NC(=O)[C@@H]1CCCN1C(=O)[C@H](CCCNC(=N)N)NC(=O)[C@@H]1CCCN1C(=O)[C@H](CCCCN)NC(=O)[C@H](CC(=O)O)NC(=O)[C@@H]1CCCN1C(=O)[C@H](CCCNC(=N)N)NC(=O)C1(N)CCCCC1)C(=O)N1CCC[C@H]1C(=O)N[C@@H](CCCNC(=N)N)C(=O)N1CCC[C@H]1C(=O)N[C@@H](CCCNC(=N)N)C(=O)N1CCC[C@H]1C(=O)N1CCC[C@H]1C(=O)N[C@@H](CCCNC(=N)N)C(=O)N1CCC[C@H]1C(=O)N[C@H](C(=O)N[C@@H](CCCNC(=N)N)C(=O)N[C@@H](CSc1c(F)c(F)c(SC[C@H](NC(=O)[C@H](CCCNC(=N)N)NC(=O)[C@@H](NC(=O)[C@@H]2CCCN2C(=O)[C@H](CCCNC(=N)N)NC(=O)[C@@H]2CCCN2C(=O)[C@@H]2CCCN2C(=O)[C@H](CCCNC(=N)N)NC(=O)[C@@H]2CCCN2C(=O)[C@H](CCCNC(=N)N)NC(=O)[C@@H]2CCCN2C(=O)[C@H](CC(C)C)NC(=O)[C@H](Cc2ccc(O)cc2)NC(=O)[C@@H]2CCCN2C(=O)[C@H](CCCNC(=N)N)NC(=O)[C@@H]2CCCN2C(=O)[C@H](CCCCN)NC(=O)[C@H](CC(=O)O)NC(=O)[C@@H]2CCCN2C(=O)[C@H](CCCNC(=N)N)NC(=O)C2(N)CCCCC2)C(C)C)C(=O)NN)c(F)c1F)C(=O)NN)C(C)C — ROS generation (flow cytometry; 2 × MBC, 90 min; baseline: untreated): 4.8 fold
CCCCCCCCCCCCCCCCCC(=O)N[C@@H](CCCCN)C(=O)N[C@@H](CCCCN)C(=O)N[C@@H](CCCNC(=N)N)C(=O)N[C@@H](CCCCN)C(N)=O — MBC (clinical isolate): 128 µg/mL (≈ 155 µM)
C[C@H]1COc2c(N3CCN(C)CC3)c(F)cc3c(=O)c(C(=O)N[C@@H](CCCNC(=N)N)C(=O)N[C@@H](Cc4ccc(-c5ccccc5)cc4)C(=O)N[C@@H](CCCNC(=N)N)C(=O)N[C@@H](Cc4ccc(-c5ccccc5)cc4)C(=O)N[C@@H](CCCNC(=N)N)C(N)=O)cn1c23 — fold MIC improvement (broth microdilution; ATCC 1799; baseline: MIC of unconjugated components): 4 to 40 fold
COc1ccc(-c2ccn(CC[C@](C)(C(=O)NO)S(C)(=O)=O)c(=O)c2)c(F)c1 — MIC90 (microbial growth, broth dilution; clinical isolate): > 64 µg/mL
Oc1ccc(C(F)(F)F)cc1-c1nc2c(Cl)cc(Cl)cc2[nH]1 — MIC change (colistin-resistant; concentration not given, with: polymyxin B nonapeptide up to 10 µg/mL): no effect
CC[C@@H](C)[C@@H](NC(=O)[C@@H](C)NC(=O)[C@@H](CCCCN)NC(=O)[C@@H](CC(C)C)NC(=O)[C@@H](CC(C)C)NC(=O)[C@H](NC(=O)[C@@H](CCCCN)NC(=O)[C@@H](CC(C)C)NC(=O)[C@@H](CCCCN)NC(=O)[C@@H](CCCCN)NC(=O)[C@@H](CCCCN)NC(=O)[C@@H](CCCCN)NC(=O)[C@@H](C)NC(=O)[C@@H](CCCCN)NC(=O)[C@@H](CO)NC(=O)[C@@H](Cc1ccccc1)NC(=O)[C@H](NC(=O)[C@@H](CCCCN)NC(=O)[C@@H](CC(C)C)NC(=O)[C@@H](Cc1ccccc1)NC(=O)[C@@H](CO)NC(=O)[C@@H](CCCCN)NC(=O)[C@@H](Cc1c[nH]c2ccccc12)NC(=O)[C@@H](CCCCN)NC(C)=O)[C@H](C)O)[C@H](C)O)C(=O)N[C@H](CO)C(=O)N[C@H](CCCCN)C(N)=O — MIC geometric mean (11 isolates): 0.8 µM (≈ 2.5 µg/mL)

Excerpt of the above:
COc1ccc(-c2ccn(CC[C@](C)(C(=O)NO)S(C)(=O)=O)c(=O)c2)c(F)c1 — MIC90 (microbial growth, broth dilution; clinical isolate): > 64 µg/mL
CCCCCCCCCCCCCCCCCC(=O)N[C@@H](CCCCN)C(=O)N[C@@H](CCCCN)C(=O)N[C@@H](CCCNC(=N)N)C(=O)N[C@@H](CCCCN)C(N)=O — MBC (clinical isolate): 128 µg/mL (≈ 155 µM)
